Published values of several laboratories.
Lines come from different studies, so protocols differ. Numbers after ± are the reported error. [ ]: non-standard residue; d: D form.
Technique: steady-state kinetics
B1: LodA (Marinomonas mediterranea, UniProt F2JXJ3); chain MALSVHPSIGVARLGNANTDNFVLNPMEIGGLPYEHDVDLKPTTTVVNFKDEAGCIRRQGQVFKVFGASNEELTLDSPNVKNIEWTVHLANKKAAWYEFRELNGNLLYGRDNSYSARGVPWRNASKTASSERQSLIIDLGPRSVSGVMATVEISINNIPETYLHPSYPSGELLQGSKHFESLGTLRTDSQGRLIVLGGYGFAGGNTDLSGYGGGDDWYDDISDGSVTCVVTYSDDSSETSTAWMVVGSPDFAPEIVNISTLSDTCFDVGVRNFDLVPDMYDSATGHYKSDYVANFDRDILPIIQRISQYQWVSNVQSMSGFFSFQFDYRDGSAANKANRMKYYNYFRQLDNKVIGDYDQPQQVLMSSEVEGDILPLMPMNSGSNSVSSSNFYDLTDNVVEKFLALDATQLFLLGQWAEGEFTAGPADDYPVSDMDTASIGNCVGLPMCPGIEMTWSLQNPVIYKDAYQIKHYQDKAYFDVNGLTPERDECEEETGCEPGDLTKRMACPWQADFFNCTIQTVNFSEPSVNKASQTETVTSRTHYEWGNLPAGVSVPDQSSVSATKNVDEKVPLPPAYYSYWWPPQSPWDVLTGELDTEGQLHSHLPAGQQINYARGINSYSQMVEHWSALAFIRDRNQNNDGFPFFTETERNHELFDFKEVLVGQVTGNSEDNETSLPVFFINANKESLEGKGTKKGKLMASYFEERAFSKVRSSNIRPRSGTRMRG
B2: Nudt8 (Mus musculus, UniProt Q9CR24); chain MLPDGLSAEDEQRCRQLLARTTARLRSRPAAAAVLVPLCLVRGVPALLYTLRSSRLVGRHKGEVSFPGGKCDPDDQDVIHTALRETQEELGLEVPKEHVWGVLQPVYDREKATIVPVLANVGPLDLQSLRPNLEEVDEVFEMSLAHLLQTQNQGYTHFCQGGHFSYTLPVFLHGPHRVWGLTAVITELTLKLLAPGFYQPSLAVPELPRG
B3: PRODH2 157-515 (Homo sapiens, UniProt Q9UF12); chain YGQFVAGETAEEVKGCVQQLRTLSLRPLLAVPTEEEPDSAAKSGEAWYEGNLGAMLRCVDLSRGLLEPPSLAEASLMQLKVTALTSTRLCKELASWVRRPGASLELSPERLAEAMDSGQNLQVSCLNAEQNQHLRASLSRLHRVAQYARAQHVRLLVDAEYTSLNPALSLLVAALAVRWNSPGEGGPWVWNTYQACLKDTFERLGRDAEAAHRAGLAFGVKLVRGAYLDKERAVAQLHGMEDPTQPDYEATSQSYSRCLELMLTHVARHGPMCHLMVASHNEESVRQATKRMWELGIPLDGTVCFGQLLGMCDHVSLALGQAGYVVYKSIPYGSLEEVIPYLIRRAQENRSVLQGARRE
B4: enzyme (Schistosoma mansoni, UniProt Q962Y6); not fully specified; Sec = N[C@@H](C[SeH])C(=O)O; chain MPPADGTSQWLRKTVDSAAVILFSKTTCPYCKKVKDVLAEAKIKHATIELDQLSNGSAIQKCLASFSKIETVPQMFVRGKFIGDSQTVLKYYSNDELAGIVNESKYDYDLIVIGGGSGGLAAGKEAAKYGAKTAVLDYVEPTPIGTTWGLGGTCVNVGCIPKKLMHQAGLLSHALEDAEHFGWSLDRSKISHNWSTMVEGVQSHIGSLNWGYKVALRDNQVTYLNAKGRLISPHEVQITDKNQKVSTITGNKIILATGERPKYPEIPGAVEYGITSDDLFSLPYFPGKTLVIGASYVALECAGFLASLGGDVTVMVRSILLRGFDQQMAEKVGDYMENHGVKFAKLCVPDEIKQLKVVDTENNKPGLLLVKGHYTDGKKFEEEFETVIFAVGREPQLSKVLCETVGVKLDKNGRVVCTDDEQTTVSNVYAIGDINAGKPQLTPVAIQAGRYLARRLFAGATELTDYSNVATTVFTPLEYGACGLSEEDAIEKYGDKDIEVYHSNFKPLEWTVAHREDNVCYMKLVCRKSDNMRVLGLHVLGPNAGEITQGYAVAIKMGATKADFDRTIGIHPTCSETFTTLHVTKKSGVSPIVSGC[Sec]G
B5: vioC (Streptomyces vinaceus, UniProt Q6WZB0); chain MTESPTTHHGAAPPDSVATPVRPWSEFRLTPAEAAAAAALAARCAQRYDETDGPEFLLDAPVIAHELPRRLRTFMARARLDAWPHALVVRGNPVDDAALGSTPVHWRTARTPGSRPLSFLLMLYAGLLGDVFGWATQQDGRVVTDVLPIKGGEHTLVSSSSRQELGWHTEDAFSPYRADYVGLLSLRNPDGVATTLAGVPLDDLDERTLDVLFQERFLIRPDDSHLQVNNSTAQQGRVEFEGIAQAADRPEPVAILTGHRAAPHLRVDGDFSAPAEGDEEAAAALGTLRKLIDASLYELVLDQGDVAFIDNRRAVHGRRAFQPRYDGRDRWLKRINITRDLHRSRKAWAGDSRVLGQR
B6: cyc1 A236G (Streptomyces coelicolor, UniProt Q9K499); chain MHAFPHGTTATPTAIAVPPSLRLPVIEAAFPRQLHPYWPKLQETTRTWLLEKRLMPADKVEEYADGLCYTDLMAGYYLGAPDEVLQAIADYSAWFFVWDDRHDRDIVHGRAGAWRRLRGLLHTALDSPGDHLHHEDTLVAGFADSVRRLYAFLPATWNARFARHFHTVIEAYDREFHNRTRGIVPGVEEYLELRRLTFAHWIWTDLLEPSSGCELPDAVRKHPAYRRAALLSQEFGAWYNDLCSLPKEIAGDEVHNLGISLITHHSLTLEEAIGEVRRRVEECITEFLAVERDALRFADELADGTVRGKELSGAVRANVGNMRNWFSSVYWFHHESGRYMVDSWDDRSTPPYVNNEAAGEK
B7: POLI (Homo sapiens, UniProt Q9UNA4); chain MEKLGVEPEEEGGGDDDEEDAEAWAMELADVGAAASSQGVHDQVLPTPNASSRVIVHVDLDCFYAQVEMISNPELKDKPLGVQQKYLVVTCNYEARKLGVKKLMNVRDAKEKCPQLVLVNGEDLTRYREMSYKVTELLEEFSPVVERLGFDENFVDLTEMVEKRLQQLQSDELSAVTVSGHVYNNQSINLLDVLHIRLLVGSQIAAEMREAMYNQLGLTGCAGVASNKLLAKLVSGVFKPNQQTVLLPESCQHLIHSLNHIKEIPGIGYKTAKCLEALGINSVRDLQTFSPKILEKELGISVAQRIQKLSFGEDNSPVILSGPPQSFSEEDSFKKCSSEVEAKNKIEELLASLLNRVCQDGRKPHTVRLIIRRYSSEKHYGRESRQCPIPSHVIQKLGTGNYDVMTPMVDILMKLFRNMVNVKMPFHLTLLSVCFCNLKALNTAKKGLIDYYLMPSLSTTSRSGKHSFKMKDTHMEDFPKDKETNRDFLPSGRIESTRTRESPLDTTNFSKEKDINEFPLCSLPEGVDQEVFKQLPVDIQEEILSGKSREKFQGKGSVSCPLHASRGVLSFFSKKQMQDIPINPRDHLSSSKQVSSVSPCEPGTSGFNSSSSSYMSSQKDYSYYLDNRLKDERISQGPKEPQGFHFTNSNPAVSAFHSFPNLQSEQLFSRNHTTDSHKQTVATDSHEGLTENREPDSVDEKITFPSDIDPQVFYELPEAVQKELLAEWKRAGSDFHIGHK
Chain of UniProt Q7L266 (whole entry, looked up): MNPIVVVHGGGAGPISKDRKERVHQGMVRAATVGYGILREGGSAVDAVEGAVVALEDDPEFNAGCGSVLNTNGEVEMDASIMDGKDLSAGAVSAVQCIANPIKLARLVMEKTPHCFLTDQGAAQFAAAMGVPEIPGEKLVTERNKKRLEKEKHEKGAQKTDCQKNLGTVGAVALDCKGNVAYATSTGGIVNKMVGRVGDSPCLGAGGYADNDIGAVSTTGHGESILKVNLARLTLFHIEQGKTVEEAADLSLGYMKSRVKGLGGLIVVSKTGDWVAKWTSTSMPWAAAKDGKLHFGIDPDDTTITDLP
Chain of UniProt Q9HJT3 (whole entry, looked up): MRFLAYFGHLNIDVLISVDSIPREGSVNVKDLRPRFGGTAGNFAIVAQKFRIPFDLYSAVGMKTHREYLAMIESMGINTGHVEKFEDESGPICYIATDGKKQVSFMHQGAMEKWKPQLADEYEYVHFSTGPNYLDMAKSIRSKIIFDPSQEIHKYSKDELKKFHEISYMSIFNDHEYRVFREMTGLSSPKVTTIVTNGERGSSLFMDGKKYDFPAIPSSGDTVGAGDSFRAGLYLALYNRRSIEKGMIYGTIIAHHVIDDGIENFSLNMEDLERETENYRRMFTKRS
Chain of UniProt P9WEW1 (whole entry, looked up): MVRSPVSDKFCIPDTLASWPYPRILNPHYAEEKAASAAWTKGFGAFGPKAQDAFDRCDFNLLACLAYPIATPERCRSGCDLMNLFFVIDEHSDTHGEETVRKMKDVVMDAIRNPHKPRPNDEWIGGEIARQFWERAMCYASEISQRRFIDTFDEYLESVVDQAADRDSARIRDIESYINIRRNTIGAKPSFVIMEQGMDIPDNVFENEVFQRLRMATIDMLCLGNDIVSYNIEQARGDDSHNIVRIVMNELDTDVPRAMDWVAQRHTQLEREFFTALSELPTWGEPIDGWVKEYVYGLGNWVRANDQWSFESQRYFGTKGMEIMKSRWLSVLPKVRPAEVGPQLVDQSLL
Chain of UniProt P27306 (whole entry, looked up): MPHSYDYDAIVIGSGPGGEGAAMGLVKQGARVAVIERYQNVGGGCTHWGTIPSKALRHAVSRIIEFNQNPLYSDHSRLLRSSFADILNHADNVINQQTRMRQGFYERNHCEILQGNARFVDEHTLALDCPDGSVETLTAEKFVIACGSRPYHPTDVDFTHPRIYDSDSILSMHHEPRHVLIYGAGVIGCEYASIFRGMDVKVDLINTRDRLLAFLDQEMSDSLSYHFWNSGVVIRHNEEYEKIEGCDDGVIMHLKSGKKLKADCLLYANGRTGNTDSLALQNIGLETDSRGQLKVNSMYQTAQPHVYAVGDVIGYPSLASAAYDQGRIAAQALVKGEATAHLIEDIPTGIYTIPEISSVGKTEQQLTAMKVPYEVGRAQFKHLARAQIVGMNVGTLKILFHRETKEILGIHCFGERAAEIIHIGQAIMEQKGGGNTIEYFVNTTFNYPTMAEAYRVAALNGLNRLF
Chain of UniProt Q18B70 (whole entry, looked up): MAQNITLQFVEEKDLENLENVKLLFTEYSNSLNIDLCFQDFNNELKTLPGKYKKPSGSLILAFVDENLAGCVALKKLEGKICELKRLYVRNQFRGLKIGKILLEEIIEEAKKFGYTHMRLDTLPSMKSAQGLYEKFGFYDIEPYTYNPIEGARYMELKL
Chain of UniProt J9VYP5 (whole entry, looked up): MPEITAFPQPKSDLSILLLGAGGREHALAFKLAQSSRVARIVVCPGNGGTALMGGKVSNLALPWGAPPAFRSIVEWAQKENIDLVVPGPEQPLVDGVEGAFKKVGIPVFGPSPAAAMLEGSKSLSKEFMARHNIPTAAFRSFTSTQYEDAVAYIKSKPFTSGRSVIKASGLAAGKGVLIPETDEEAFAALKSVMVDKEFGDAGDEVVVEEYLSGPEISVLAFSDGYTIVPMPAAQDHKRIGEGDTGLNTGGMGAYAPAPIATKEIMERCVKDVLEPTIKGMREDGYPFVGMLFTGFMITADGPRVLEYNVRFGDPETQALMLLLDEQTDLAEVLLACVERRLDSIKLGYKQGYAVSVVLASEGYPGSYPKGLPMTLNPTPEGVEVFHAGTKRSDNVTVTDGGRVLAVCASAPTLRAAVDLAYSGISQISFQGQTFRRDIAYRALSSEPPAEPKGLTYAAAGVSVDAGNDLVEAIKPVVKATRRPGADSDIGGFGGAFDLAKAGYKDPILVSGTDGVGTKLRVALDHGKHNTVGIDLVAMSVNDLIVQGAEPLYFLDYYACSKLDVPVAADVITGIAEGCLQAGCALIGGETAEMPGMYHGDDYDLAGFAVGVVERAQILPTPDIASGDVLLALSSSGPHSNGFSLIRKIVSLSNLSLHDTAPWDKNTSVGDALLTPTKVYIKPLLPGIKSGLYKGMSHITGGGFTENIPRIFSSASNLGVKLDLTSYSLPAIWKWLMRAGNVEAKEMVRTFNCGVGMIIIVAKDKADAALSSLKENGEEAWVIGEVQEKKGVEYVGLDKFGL

Molecule | substrate | pH | temperature | notes | added | kcat [s⁻¹]
TaNK (Thermoplasma acidophilum, UniProt Q9HJT3) | Nc1ncnc2c1ncn2[C@@H]1O[C@H](COP(=O)(O)OP(=O)(O)OP(=O)(O)O)[C@@H](O)[C@H]1O | pH 8 | 22 °C | apparent | inosine, Mg2+ | 0.174 ± 0.003
protein (Stereum hirsutum, UniProt P9WEW1) | CC(C)=CCC/C(C)=C/CC/C(C)=C/CO[P@@](=O)(O)OP(=O)(O)O | pH 8 |  | NaCl 200 mM | FPP 1–100 µM | 0.0037 ± 0.0006
B1 (LodA) | NCCCC[C@H](N)C(=O)O | pH 7.5 | 25 °C |  | O2 | 0.22 ± 0.04
enzyme (Irpex lacteus, UniProt A0A510I1H7) | CC(=O)Oc1ccc([N+](=O)[O-])cc1 | pH 6 | 30 °C |  |  | 29.1 ± 4.3
B2 (Nudt8) | CC(C)(COP(=O)(O)OP(=O)(O)OC[C@H]1O[C@@H](n2cnc3c(N)ncnc32)[C@H](O)[C@@H]1OP(=O)(O)O)[C@@H](O)C(=O)NCCC(=O)NCCS | pH 8.5 |  |  | 2 mM Mn2+ | 3.6 ± 0.133
sthA (Escherichia coli, UniProt P27306) | NC(=O)C1=CN([C@@H]2O[C@H](COP(=O)(O)OP(=O)(O)OC[C@H]3O[C@@H](n4cnc5c(N)ncnc54)[C@H](OP(=O)(O)O)[C@@H]3O)[C@@H](O)[C@H]2O)C=CC1 | pH 7.5 | 37 °C | NaCl 150 mM | thio-NAD+ 200 µM | 30 ± 1
enzyme (Comamonas testosteroni, UniProt B7WQT1) | O=C(O)c1ccc(C(=O)O)cc1 | pH 8 | 25 °C | apparent |  | 2 ± 0.1
pgmB H20A (Lactococcus lactis) (sequence not shown) | O=P(O)(O)OC[C@H]1O[C@@H](OP(=O)(O)O)[C@H](O)[C@@H](O)[C@@H]1O | pH 7 | 25 °C |  |  | 0.0197 ± 0.003
GAR synthetase (Cryptococcus neoformans, UniProt J9VYP5) | Nc1ncnc2c1ncn2[C@@H]1O[C@H](COP(=O)(O)OP(=O)(O)OP(=O)(O)O)[C@@H](O)[C@H]1O | pH 8 | 37 °C | apparent |  | 17.3 ± 0.3
B3 (PRODH2 157-515) | O=C(O)[C@@H]1C[C@@H](O)CN1 | pH 7.5 | 25 °C |  | CoQ1 electron acceptor 200 µM | 0.19 ± 0.01
B4 (enzyme) | NC(=O)CCCCC1CCSS1 | pH 7.4 | 25 °C |  |  | 4.3 ± 0.4
butyrylcholinesterase (Sus scrofa, UniProt A0A4X1VEU5) | CC(=O)SCC[N+](C)(C)C | pH 8 | 22 °C |  |  | 1030 ± 50
B5 (vioC) | N=C(N)NCCCC[C@H](N)C(=O)O | pH 8 | 30 °C |  | alpha-ketoglutarate 1.0 mM | 13.8 ± 2.77
B6 (cyc1 A236G) | CC(C)=CCC/C(C)=C/CC/C(C)=C/CO[P@@](=O)(O)OP(=O)(O)O | pH 6.5 | 30 °C |  | MgCl2 10 mM | 0.066 ± 0.002
protein (Clostridioides difficile, UniProt Q18B70) | CC(=O)SCCNC(=O)CCNC(=O)[C@H](O)C(C)(C)COP(=O)(O)OP(=O)(O)OC[C@H]1O[C@@H](n2cnc3c(N)ncnc32)[C@H](O)[C@@H]1OP(=O)(O)O | pH 8 | 37 °C |  | L-Thr 10 mM, AcCoA 0-2 mM | 7.97
ASRGL1 (Homo sapiens, UniProt Q7L266) | COC(=O)C[C@H](N)C(=O)O | pH 7.4 | 37 °C | NaCl 100 mM |  | 7.7 ± 0.3
B7 (POLI) | Cc1cn([C@H]2C[C@H](O)[C@@H](COP(=O)(O)OP(=O)(O)OP(=O)(O)O)O2)c(=O)[nH]c1=O | pH 8 | 37 °C | misinsertion opposite dT | Mg2+ | 0.00172 ± 5e-05

For quick reference, copied from above:
Molecule | substrate | pH | temperature | notes | added | kcat [s⁻¹]
B4 (enzyme) | NC(=O)CCCCC1CCSS1 | pH 7.4 | 25 °C |  |  | 4.3 ± 0.4
butyrylcholinesterase (Sus scrofa, UniProt A0A4X1VEU5) | CC(=O)SCC[N+](C)(C)C | pH 8 | 22 °C |  |  | 1030 ± 50
